Measured values collected from several papers.
Each line is one published result; not all experiments were run side by side. Values joined by “and” are separate records of one study, mostly repeats; a detail may differ. ± marks the error that the study gave.
CTSL: Procathepsin L (CTSL, Homo sapiens, UniProt P07711)
Mitogen-activated protein kinase 14: Mitogen-activated protein kinase 14 (Rattus norvegicus, UniProt P70618)
CA2: Carbonic anhydrase 2 (CA2, Homo sapiens, UniProt P00918)

O=C(c1cc(Cc2n[nH]c(=O)c3ccccc23)ccc1F)N1CC(CNC2CC2)C1  IC50 (Poly [ADP-ribose] polymerase tankyrase-2 (TNKS2, Homo sapiens, UniProt Q9H2K2); enzyme activity, inhibitor): 3.2 µM and ~3.2 µM
CN(C)S(=O)(=O)c1ccc2nnn(OCc3cccc4cccnc34)c2c1  IC50 (CTSL; enzyme activity, inhibitor, FRET): > 100 µM
CC(C)NCCN1C(=O)CSC1c1ccc(Cl)cc1Cl (centres unmarked)  IC50 (uncharacterized protein (Apis mellifera, UniProt A0A7M6W5G5); enzyme activity, inhibitor, Ellman; together with: 1 mM acetylthiocholine): 22 µM
CC[C@H](C)[C@H](NC(=O)[C@H](CCCCN)NC(=O)[C@H](CC(N)=O)NC(=O)[C@H](CCCNC(=N)N)NC(=O)[C@H](CCCCN)NC(=O)[C@@H](NC(=O)[C@H](CCCCN)NC(=O)[C@H](C)NC(=O)[C@@H](N)Cc1ccc(O)cc1)[C@@H](C)O)C(=O)N[C@@H](CC(C)C)C(=O)N[C@@H](CCCCN)C(=O)N[C@@H](CC(C)C)C(=O)N[C@@H](CCCCN)C(=O)N[C@@H](Cc1ccccc1)C(=O)N1CCC[C@H]1C(=O)N[C@@H](CCCNC(=N)N)C(=O)O  IC50 (Mitogen-activated protein kinase 14; enzyme activity, inhibitor, fluorescence; pH 7.4): 1.5 µM
O=C(O)CCn1c(=O)oc2cc(Cl)c(Cl)cc21  IC50 (5-hydroxytryptamine receptor 2A (HTR2A, Homo sapiens, UniProt P28223); antagonist; median value): > 25.1 µM
CC(C)C[C@H](NC(=O)[C@H]1O[C@@H]1C(=O)O)C(=O)NCCCCN=C(N)N  IC50 (Pro-cathepsin H (Homo sapiens, UniProt P09668); enzyme activity, inhibitor): 0.0434 µM
O=C(CN1CN(c2ccccc2)C2(CCN(C(=O)c3cnc4[nH]ncc4c3)CC2)C1=O)NCC(F)(F)F  IC50 (Cytochrome P450 2D6 (CYP2D6, Homo sapiens, UniProt P10635); enzyme activity, inhibitor): 16 µM
O=C(O)C(/C=C/c1ccc(Cl)cc1)=N\Nc1nc(-c2ccc(F)cc2)cs1  IC50 (Cholinesterase (BCHE, Equus caballus, UniProt P81908); enzyme activity, inhibitor): 7.14 µM
CN1CCCCC1C(=O)NC(Cc1ccc(-c2ccccc2)cc1)B(O)O (centres unmarked)  IC50 (PSMB6/PSMB7 (Homo sapiens, UniProt P28072+Q99436); β1c caspase-like activity, inhibitor; constitutive proteasome, together with: Z-LLE-AMC): > 10 µM
O=C(Nc1cccnc1)c1cccs1  IC50 (Nicotinamide phosphoribosyltransferase (NAMPT, Homo sapiens, UniProt P43490); enzyme activity, inhibitor, fluorescence): 27 µM
CC[C@H](C)[C@H](N)C(=O)N[C@@H](CCCNC(=N)N)C(=O)N[C@@H](CCC(N)=O)C(=O)N[C@@H](CCC(=O)O)C(=O)N[C@@H](CCC(=O)O)C(=O)N[C@H](C(=O)N[C@@H](CCC(N)=O)C(=O)N[C@@H](CCC(=O)O)C(=O)N[C@@H](CC(C)C)C(=O)O)C(C)C  IC50 (HLA class I histocompatibility antigen, B alpha chain, allele B*18:01 (Homo sapiens, UniProt P01889); peptide-MHC binding, radioligand competition binding): > 70 µM
O=C(COc1ccc(Cl)cc1Cl)Nc1ccc(CN2CCCCC2)cc1  IC50 (uncharacterized protein (Apis mellifera, UniProt A0A7M6W5G5); enzyme activity, inhibitor, Ellman; pH 7.4, 30 °C, together with: 1 mM acetylthiocholine): 6.2 µM
COC(=O)c1ccc(COC(CN2CCN(C(=O)NCc3ccc(OC)cc3)CC2)c2ccc(Cl)cc2)cc1 (centres unmarked)  IC50 (Lanosterol 14-alpha demethylase (ERG11, Candida albicans, UniProt P10613); enzyme activity, inhibitor, mass spectrometry): 1.79 µM
CCOC(=O)c1ccccc1-c1c2ccc(=O)cc-2oc2cc(OCCCn3nnnc3C(NCc3ccccc3)c3ccc(Br)cc3)ccc12 (centres unmarked)  IC50 (Polyunsaturated fatty acid lipoxygenase ALOX15 (ALOX15, Homo sapiens, UniProt P16050); enzyme activity, inhibitor, absorbance): 54.8 µM
CC(C)CN(CCCC[C@H](NC(=O)[C@H](CCCN1CCOCC1)NC(=O)[C@@H](NC(=O)[C@H](Cc1ccccc1)NC(=O)c1ccc(C(C)(C)C)cc1)C1CCC1)C(=O)N[C@@H](CO)C(N)=O)C1CC2CCC1C2 (some centres unmarked)  IC50 (Chromobox protein homolog 8 (Homo sapiens, UniProt Q9HC52); ligand displacement, TR-FRET): 0.3 µM
CC[C@H](C)[C@H](NC(=O)[C@H](C)NC(=O)[C@@H](N)Cc1ccc(O)cc1)C(=O)N[C@@H](CCCNC(=N)N)C(=O)N[C@@H](C)C(=O)N[C@@H](CCCNC(=N)N)C(=O)N[C@@H](CCCNC(=N)N)C(=O)NCC(=O)N[C@@H](CC(C)C)C(=O)N1CCC[C@H]1C(=O)N[C@@H](CCCNC(=N)N)C(=O)N[C@@H](CC(C)C)C(=O)N[C@@H](C)C(=O)N[C@H](C(=O)N[C@@H](CO)C(=O)N[C@@H](CC(=O)O)C(=O)O)C(C)C  IC50 (Mitogen-activated protein kinase 14; enzyme activity, inhibitor, fluorescence; pH 7.4): 82 µM
Nc1ccn(C2OC(COP(=O)(O)OP(=O)(O)OP(=O)(O)O)C(O)C2(F)F)c(=O)n1 (centres unmarked)  IC50 (pyrG (Escherichia coli, UniProt P0A7E5, C268A); enzyme activity; together with: 6.0 mM glutamine, 1.0 mM ATP, 0.05 mM UTP): 3.2 ± 0.1 µM
O=C(CCc1ccc(Br)cc1)N[C@H]1CCOC1=O  IC50 (Transcriptional activator protein LasR (lasR, Pseudomonas aeruginosa, UniProt P25084); reporter gene, antagonist; Escherichia coli, JLD271 with LasR plasmid; together with: OdDHL 0.5 nM): 0.12 µM
C[C@@H]1COCCN1c1nc(NCc2cccnc2C(F)(F)F)c2cccnc2n1  IC50 (Bile salt export pump (ABCB11, Homo sapiens, UniProt O95342); inhibitor): 35 µM
CCN1CCC[C@H]1CNC(=O)c1cc([N+](=O)[O-])c(N(C)C)cc1OC  IC50 (uncharacterized protein (Anopheles gambiae, UniProt Q7QFG0); enzyme activity, inhibitor, Ellman; pH 7.4, 30 °C, together with: 1 mM acetylthiocholine): 20 µM
CNC(=O)C[C@H](Cc1ccncc1)NC(=O)[C@@H](Cc1cccc(Br)c1)NC(=O)[C@@H](N)Cc1cccc(F)c1  IC50 (CTSL; enzyme activity, inhibitor): > 10 µM
Cc1ccc2c(n1)c(-c1cccc(S(C)(=O)=O)c1)c(C)n2C/C(F)=C/CN  IC50 (Cytochrome P450 2B6 (CYP2B6, Homo sapiens, UniProt P20813); enzyme activity, inhibitor; human, liver microsomes): 3.4 µM
CCCN(CCCC[C@H](NC(=O)[C@H](CCCN1CCOCC1)NC(=O)[C@@H](NC(=O)[C@H](Cc1ccccc1)NC(=O)c1ccc(C(C)(C)C)cc1)C(C)C)C(=O)N[C@@H](CO)C(N)=O)C1CC2CCC1C2 (some centres unmarked)  IC50 (Chromobox protein homolog 7 (Homo sapiens, UniProt O95931); ligand displacement, TR-FRET): 4.7 µM
CC(C)C[C@H](NC(=O)[C@H](CCCCN)NC(=O)[C@H](CO)NC(=O)[C@H](CCCNC(=N)N)NC(=O)[C@H](C)NC(=O)[C@@H](N)Cc1ccc(O)cc1)C(=O)N[C@@H](CCCNC(=N)N)C(=O)N[C@@H](CCCCN)C(=O)N1CCC[C@H]1C(=O)N[C@@H](CCCCN)C(=O)N1CCC[C@H]1C(=O)N[C@H](C(=O)N1CCC[C@H]1C(=O)N[C@@H](CC(C)C)C(=O)N[C@@H](CCCNC(=N)N)C(=O)N[C@@H](CCCCN)C(=O)O)C(C)C  IC50 (Mitogen-activated protein kinase 14; enzyme activity, inhibitor, fluorescence; pH 7.4): 20.3 µM
Cc1ccc(C)c(COn2nnc3ccc(S(=O)(=O)N(C)C)cc32)c1  IC50 (CTSL; enzyme activity, inhibitor, FRET): > 100 µM
CC(C)Oc1c(NC(=O)c2ccc(NC(=O)C(CC(N)=O)NC(=O)c3cc(F)c(N=Nc4c(F)cccc4F)c(F)c3)cc2)ccc(C(=O)NN=Cc2ccc(C(=O)O)cc2)c1O (centres unmarked)  IC50 (DNA gyrase (gyrA/gyrB, Escherichia coli, UniProt P0AES4+P0AES6); DNA supercoiling, inhibitor; 30 min, 37 °C, dark thermally adapted state, together with: relaxed pUC19 DNA): > 25 µM
CC[C@H](C)[C@H](NC(=O)[C@H](C)NC(=O)[C@H](CC(C)C)NC(=O)[C@H](CCCCN)NC(=O)[C@H](CCCNC(=N)N)NC(=O)[C@H](CCCCN)NC(=O)[C@H](CCCCN)NC(=O)[C@@H](NC(=O)[C@H](CCCCN)NC(=O)[C@H](CC(N)=O)NC(=O)[C@H](CCCCN)NC(=O)[C@@H](NC(=O)[C@H](C)NC(=O)[C@@H](N)Cc1ccc(O)cc1)[C@@H](C)O)C(C)C)C(=O)N[C@H](C(=O)N[C@@H](CCCNC(=N)N)C(=O)O)[C@@H](C)CC  IC50 (Mitogen-activated protein kinase 14; enzyme activity, inhibitor, fluorescence; pH 7.4): 9 µM
COc1ccc(S(=O)(=O)Oc2ccc(/C=N/NS(=O)(=O)c3ccc(Cl)cc3)cc2)cc1  IC50 (CA2; enzyme activity, inhibitor, absorbance): 0.302 µM
CC[C@H](C)[C@H](NC(=O)[C@H](Cc1ccccc1)NC(=O)[C@H](CC(C)C)NC(=O)[C@@H]1CCCN1C(=O)[C@H](CCC(=O)O)NC(=O)[C@@H]1CCCN1C(=O)[C@H](CCCNC(=N)N)NC(=O)[C@H](Cc1c[nH]cn1)NC(=O)[C@H](CCCNC(=N)N)NC(=O)[C@H](Cc1ccccc1)NC(=O)[C@H](CCCCN)NC(=O)[C@H](CCCCN)NC(=O)[C@H](C)NC(=O)[C@@H](N)Cc1ccc(O)cc1)C(=O)N1CCC[C@H]1C(=O)N1CCC[C@H]1C(=O)O  IC50 (Mitogen-activated protein kinase 14; enzyme activity, inhibitor, fluorescence; pH 7.4): 5.1 µM
O=[N+]([O-])c1ccc2c(N=Nc3ccc4ccccc4c3O)c(O)cc(S(=O)(=O)O)c2c1  IC50 (Bcl-2-related protein A1 (Mus musculus, UniProt Q07440, C113S/P104K); ligand displacement, FP): 320 µM
CC[C@H](C)[C@H](NC(=O)[C@H](CCCCN)NC(=O)[C@H](CC(C)C)NC(=O)[C@@H]1CCCN1C(=O)[C@H](CCCNC(=N)N)NC(=O)[C@@H]1CCCN1C(=O)[C@H](CCCCN)NC(=O)[C@@H](NC(=O)[C@H](CCCCN)NC(=O)[C@H](CC(N)=O)NC(=O)[C@H](CCCCN)NC(=O)[C@@H](NC(=O)[C@H](C)NC(=O)[C@@H](N)Cc1ccc(O)cc1)[C@@H](C)O)C(C)C)C(=O)N[C@H](C(=O)N[C@@H](CCCNC(=N)N)C(=O)O)[C@@H](C)CC  IC50 (Mitogen-activated protein kinase 14; enzyme activity, inhibitor, fluorescence; pH 7.4): 13.8 µM
O=S(=O)(N/N=C/c1ccc(OS(=O)(=O)c2ccc(Cl)cc2)cc1)c1ccc(Cl)cc1  IC50 (CA2; enzyme activity, inhibitor, absorbance): 0.0567 µM

For quick reference, copied from above:
CNC(=O)C[C@H](Cc1ccncc1)NC(=O)[C@@H](Cc1cccc(Br)c1)NC(=O)[C@@H](N)Cc1cccc(F)c1  IC50 (CTSL; enzyme activity, inhibitor): > 10 µM
C[C@@H]1COCCN1c1nc(NCc2cccnc2C(F)(F)F)c2cccnc2n1  IC50 (Bile salt export pump (ABCB11, Homo sapiens, UniProt O95342); inhibitor): 35 µM
